Published values collected from several papers.
± marks the error that the study gave.
expR: expR (Pectobacterium carotovorum, UniProt Q4KS34)
UniProt P08581, sequence (whole entry, unmodified, looked up): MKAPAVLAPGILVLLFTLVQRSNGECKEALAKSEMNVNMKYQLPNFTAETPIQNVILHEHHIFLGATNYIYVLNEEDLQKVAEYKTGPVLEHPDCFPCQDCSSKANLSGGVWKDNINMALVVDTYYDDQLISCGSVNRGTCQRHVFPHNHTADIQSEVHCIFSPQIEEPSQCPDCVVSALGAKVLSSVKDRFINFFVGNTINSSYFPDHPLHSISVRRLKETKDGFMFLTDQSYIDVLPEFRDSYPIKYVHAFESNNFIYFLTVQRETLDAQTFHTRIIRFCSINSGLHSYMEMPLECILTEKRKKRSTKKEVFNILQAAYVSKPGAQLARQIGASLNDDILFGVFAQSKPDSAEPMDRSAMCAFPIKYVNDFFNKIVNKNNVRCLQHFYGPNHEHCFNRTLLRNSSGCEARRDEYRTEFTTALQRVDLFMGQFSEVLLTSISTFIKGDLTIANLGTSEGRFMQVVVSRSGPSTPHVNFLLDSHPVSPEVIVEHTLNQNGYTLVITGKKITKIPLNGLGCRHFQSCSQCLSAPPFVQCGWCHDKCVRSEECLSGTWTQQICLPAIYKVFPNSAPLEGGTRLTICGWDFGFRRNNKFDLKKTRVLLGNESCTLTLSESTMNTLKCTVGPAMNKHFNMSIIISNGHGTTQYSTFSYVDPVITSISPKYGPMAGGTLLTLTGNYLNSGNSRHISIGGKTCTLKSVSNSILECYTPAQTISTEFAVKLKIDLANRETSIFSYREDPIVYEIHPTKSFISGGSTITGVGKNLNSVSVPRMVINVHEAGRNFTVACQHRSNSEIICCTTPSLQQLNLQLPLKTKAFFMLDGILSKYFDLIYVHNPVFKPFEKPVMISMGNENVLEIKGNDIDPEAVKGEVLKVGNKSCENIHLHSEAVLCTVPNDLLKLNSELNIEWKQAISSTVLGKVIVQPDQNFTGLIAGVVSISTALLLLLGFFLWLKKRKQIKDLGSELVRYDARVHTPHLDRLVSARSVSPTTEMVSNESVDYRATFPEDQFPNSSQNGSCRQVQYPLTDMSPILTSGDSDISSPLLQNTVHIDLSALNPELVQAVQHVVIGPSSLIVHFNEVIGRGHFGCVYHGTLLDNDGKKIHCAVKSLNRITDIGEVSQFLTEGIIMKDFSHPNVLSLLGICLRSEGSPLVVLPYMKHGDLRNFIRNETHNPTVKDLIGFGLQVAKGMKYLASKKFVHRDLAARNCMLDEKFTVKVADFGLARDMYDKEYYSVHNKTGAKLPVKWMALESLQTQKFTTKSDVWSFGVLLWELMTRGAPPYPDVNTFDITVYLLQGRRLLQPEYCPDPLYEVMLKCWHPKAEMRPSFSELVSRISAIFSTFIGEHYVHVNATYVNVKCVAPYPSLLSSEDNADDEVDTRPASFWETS
UniProt P36544, sequence (whole entry, looked up): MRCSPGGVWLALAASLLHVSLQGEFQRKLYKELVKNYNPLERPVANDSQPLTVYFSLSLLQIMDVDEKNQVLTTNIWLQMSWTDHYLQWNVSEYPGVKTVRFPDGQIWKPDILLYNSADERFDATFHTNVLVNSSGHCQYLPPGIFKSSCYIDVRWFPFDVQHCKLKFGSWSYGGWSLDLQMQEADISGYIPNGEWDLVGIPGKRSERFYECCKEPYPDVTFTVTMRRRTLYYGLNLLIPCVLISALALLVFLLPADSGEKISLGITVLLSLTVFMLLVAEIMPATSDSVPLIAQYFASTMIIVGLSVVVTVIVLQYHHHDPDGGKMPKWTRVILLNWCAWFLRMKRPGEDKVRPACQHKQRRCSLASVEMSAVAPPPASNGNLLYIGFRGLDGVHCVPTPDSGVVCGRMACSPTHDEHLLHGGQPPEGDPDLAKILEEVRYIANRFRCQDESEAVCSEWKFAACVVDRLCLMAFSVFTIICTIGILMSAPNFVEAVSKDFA
UniProt P33533, sequence (whole entry, looked up): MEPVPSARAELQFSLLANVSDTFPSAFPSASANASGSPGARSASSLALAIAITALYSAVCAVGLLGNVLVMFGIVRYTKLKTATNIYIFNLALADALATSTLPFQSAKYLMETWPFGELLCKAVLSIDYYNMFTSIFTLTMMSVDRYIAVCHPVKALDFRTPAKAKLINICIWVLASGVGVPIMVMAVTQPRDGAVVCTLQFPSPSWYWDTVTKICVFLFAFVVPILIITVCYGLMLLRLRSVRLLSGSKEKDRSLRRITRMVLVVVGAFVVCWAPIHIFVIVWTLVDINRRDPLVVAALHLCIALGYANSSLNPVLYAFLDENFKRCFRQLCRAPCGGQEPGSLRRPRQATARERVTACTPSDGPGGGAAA
UniProt P05181, sequence (whole entry, looked up): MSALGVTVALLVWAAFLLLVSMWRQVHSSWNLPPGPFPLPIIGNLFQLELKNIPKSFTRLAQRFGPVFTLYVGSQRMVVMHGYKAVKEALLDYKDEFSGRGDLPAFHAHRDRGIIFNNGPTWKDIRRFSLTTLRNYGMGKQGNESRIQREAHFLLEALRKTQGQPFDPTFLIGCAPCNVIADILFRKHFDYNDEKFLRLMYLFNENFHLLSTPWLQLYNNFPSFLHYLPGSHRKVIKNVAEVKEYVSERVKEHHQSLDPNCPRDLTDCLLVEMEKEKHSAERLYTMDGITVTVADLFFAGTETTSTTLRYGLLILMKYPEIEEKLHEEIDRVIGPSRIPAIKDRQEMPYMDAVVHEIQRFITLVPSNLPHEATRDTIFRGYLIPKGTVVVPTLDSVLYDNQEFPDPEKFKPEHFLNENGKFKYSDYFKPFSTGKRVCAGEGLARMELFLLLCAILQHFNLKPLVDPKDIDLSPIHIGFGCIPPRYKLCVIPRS
UniProt O15245, sequence (whole entry, looked up): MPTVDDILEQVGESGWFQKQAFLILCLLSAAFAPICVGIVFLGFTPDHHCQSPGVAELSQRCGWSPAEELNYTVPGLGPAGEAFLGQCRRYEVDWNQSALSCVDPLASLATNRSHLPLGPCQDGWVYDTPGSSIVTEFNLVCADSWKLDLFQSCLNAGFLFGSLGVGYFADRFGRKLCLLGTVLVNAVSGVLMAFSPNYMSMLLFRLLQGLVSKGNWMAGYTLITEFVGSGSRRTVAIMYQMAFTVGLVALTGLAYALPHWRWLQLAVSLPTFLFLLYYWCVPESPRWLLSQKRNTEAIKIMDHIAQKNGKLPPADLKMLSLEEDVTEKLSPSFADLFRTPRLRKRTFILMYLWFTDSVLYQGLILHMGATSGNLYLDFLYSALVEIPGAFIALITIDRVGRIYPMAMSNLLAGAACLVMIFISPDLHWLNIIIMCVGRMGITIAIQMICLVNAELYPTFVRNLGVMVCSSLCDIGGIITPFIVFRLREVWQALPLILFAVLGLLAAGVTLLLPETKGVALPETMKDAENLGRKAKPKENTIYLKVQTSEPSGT
UniProt P28223, sequence (whole entry, looked up): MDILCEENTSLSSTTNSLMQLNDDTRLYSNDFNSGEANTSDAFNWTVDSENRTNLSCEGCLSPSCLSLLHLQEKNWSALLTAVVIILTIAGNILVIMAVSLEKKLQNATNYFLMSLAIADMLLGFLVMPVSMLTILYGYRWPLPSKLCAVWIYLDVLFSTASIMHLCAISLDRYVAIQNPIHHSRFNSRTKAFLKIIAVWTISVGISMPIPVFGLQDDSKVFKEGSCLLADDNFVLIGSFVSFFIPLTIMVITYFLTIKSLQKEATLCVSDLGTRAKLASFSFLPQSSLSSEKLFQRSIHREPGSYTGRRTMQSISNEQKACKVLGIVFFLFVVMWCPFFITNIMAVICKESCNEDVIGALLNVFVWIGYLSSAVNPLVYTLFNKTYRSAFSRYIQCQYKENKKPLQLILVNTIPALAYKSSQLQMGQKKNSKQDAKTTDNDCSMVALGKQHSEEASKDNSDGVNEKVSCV
UniProt P31644, sequence (whole entry, looked up): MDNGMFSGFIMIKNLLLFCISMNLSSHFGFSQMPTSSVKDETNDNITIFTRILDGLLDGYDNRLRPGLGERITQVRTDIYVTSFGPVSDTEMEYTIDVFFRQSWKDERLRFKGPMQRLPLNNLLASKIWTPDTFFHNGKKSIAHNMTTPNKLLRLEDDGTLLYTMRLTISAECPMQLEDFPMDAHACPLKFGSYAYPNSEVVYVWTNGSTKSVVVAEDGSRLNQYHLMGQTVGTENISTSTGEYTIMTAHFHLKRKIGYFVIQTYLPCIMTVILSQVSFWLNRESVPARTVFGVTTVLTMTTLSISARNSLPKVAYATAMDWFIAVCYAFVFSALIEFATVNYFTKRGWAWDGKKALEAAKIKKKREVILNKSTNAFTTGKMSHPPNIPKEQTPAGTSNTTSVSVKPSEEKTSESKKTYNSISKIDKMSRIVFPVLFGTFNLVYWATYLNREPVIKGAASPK
UniProt P18507, sequence (whole entry, looked up): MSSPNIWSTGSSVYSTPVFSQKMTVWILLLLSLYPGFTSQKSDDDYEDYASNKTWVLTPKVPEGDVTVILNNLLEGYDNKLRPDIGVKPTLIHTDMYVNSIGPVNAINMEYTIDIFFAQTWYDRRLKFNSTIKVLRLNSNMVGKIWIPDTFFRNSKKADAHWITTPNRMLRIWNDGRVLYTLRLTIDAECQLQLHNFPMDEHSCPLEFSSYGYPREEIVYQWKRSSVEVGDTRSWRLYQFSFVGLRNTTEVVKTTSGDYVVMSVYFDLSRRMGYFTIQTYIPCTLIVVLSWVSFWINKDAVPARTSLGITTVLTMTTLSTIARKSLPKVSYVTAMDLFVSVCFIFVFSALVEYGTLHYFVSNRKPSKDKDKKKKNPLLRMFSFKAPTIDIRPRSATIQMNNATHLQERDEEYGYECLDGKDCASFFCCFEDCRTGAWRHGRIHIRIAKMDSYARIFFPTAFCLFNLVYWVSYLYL

| Structure (SMILES) | target | test | test system | setting | endpoint | value |
| --- | --- | --- | --- | --- | --- | --- |
| C#CC[C@@H](N)C(=O)N[C@H](CO)C(=O)N[C@@H](C(=O)N[C@H](CO)C(=O)N[C@H](CCC(=O)O)C(=O)N[C@@H](C(=O)N[C@H](CCC(N)=O)C(=O)N[C@H](CC(C)C)C(=O)N[C@H](CCSC)C(=O)N[C@H](Cc1c[nH]cn1)C(=O)N[C@H](CC(N)=O)C(=O)N[C@H](CC(C)C)C(=O)NCC(=O)N[C@H](CCCCN)C(=O)N[C@H](Cc1c[nH]cn1)C(=O)N[C@H](CC(C)C)C(=O)NCC(=O)N[C@H](CO)C(=O)N[C@H](CCSC)C(=O)N[C@H](C)C(=O)N[C@H](CCCNC(=N)N)C(=O)N[C@@H](C(=O)N[C@H](Cc1ccc(O)cc1)C(=O)N[C@H](Cc1ccccc1)C(=O)N[C@H](CC(C)C)C(=O)N[C@H](CCCNC(=N)N)C(=O)N[C@H](Cc1ccccc1)C(=O)N[C@H](CCCCN)C(=O)N[C@H](CC(C)C)C(=O)N[C@H](CCC(N)=O)C(=O)N[C@H](CC(C)C)C(=O)N[C@@H](C(N)=O)C(C)C)C(C)C)[C@H](C)CC)C(C)C | hemagglutinin influenza A/California/07/2009 H1N1 |  |  |  | Ki | 17 µM |
| CCCc1cc(O)c2c(c1)OC(C)(C)[C@@H]1CCC(C)=C[C@@H]21 | TRPV3 (Homo sapiens, UniProt Q8NET8, R696K) | calcium uptake, agonist | HEK293S | mutant R696K, site 3 | EC50 | 3.88 ± 0.28 µM |
| CNC(C)C(=O)c1ccc2c(c1)OCO2 (stereo not drawn) | Slc6a3 (Rattus norvegicus, UniProt P23977) |  |  | rat | EC50 | 0.22 ± 0.04 µM |
| O=C(N[C@H](CO)[C@H](O)c1ccc([N+](=O)[O-])cc1)C(Cl)Cl | Multidrug resistance protein MdtM (mdtM, Salmonella typhi, UniProt Q8XFG0) |  |  |  | Kd | 0.617 ± 0.021 µM |
| O=C(CCc1ccc(Br)cc1)N[C@H]1CCOC1=O | expR |  |  |  | IC50 | 1.65 µM |
| Brc1ccc2c(c1)C(c1ccccn1)=NCc1c(-c3cnco3)ncn1-2 | Gamma-aminobutyric acid receptor subunit gamma-2 / Gamma-aminobutyric acid receptor subunit alpha-5, with β3 subunit (Homo sapiens, UniProt P18507+P31644) |  |  |  | IC50 | 0.435 µM |
| CC[C@@H](NC(=O)CNC(=O)[C@@H](Cc1ccccc1)NC(=O)CNC(=O)[C@H](N)CCC(N)=O)C(=O)N[C@H](CC(=O)O)C(=O)N[C@H](CCC(=O)O)C(=O)N[C@H](CCSC)C(=O)N[C@H](CC(C)C)C(=O)N[C@H](CCC(N)=O)C(=O)NCC(=O)N[C@H](Cc1ccccc1)C(=O)N[C@H](C)C(=O)N[C@@H](C(=O)N[C@H](C)C(=O)N[C@H](CC)C(=O)N[C@H](CCCCN)C(=O)N[C@H](CCSC)C(=O)NCC(=O)N[C@H](C)C(=O)N[C@H](Cc1ccc(O)cc1)C(=O)N[C@H](CCCCN)C(=O)N[C@H](C)C(=O)N[C@H](CC(=O)O)C(=O)O)C(C)C | hemagglutinin influenza A/California/07/2009 H1N1 |  |  |  | Ki | 6 µM |
| NC(=O)c1cccnc1 | Nan-Iav channel Halyomorpha halys | binding |  |  | Ki | 108 µM |
| C#CC[C@@H](N)C(=O)N[C@H](CO)C(=O)N[C@@H](C(=O)N[C@H](CO)C(=O)N[C@H](CCC(=O)O)C(=O)N[C@@H](C(=O)N[C@H](CCC(N)=O)C(=O)N[C@H](CC(C)C)C(=O)N[C@H](CCSC)C(=O)N[C@H](Cc1c[nH]cn1)C(=O)N[C@H](CC(N)=O)C(=O)N[C@H](CC(C)C)C(=O)NCC(=O)N[C@H](CCCCN)C(=O)N[C@H](Cc1c[nH]cn1)C(=O)N[C@H](CC(C)C)C(=O)N[C@H](CC(N)=O)C(=O)N[C@H](CO)C(=O)N[C@H](CCSC)C(=O)N[C@H](CCC(=O)O)C(=O)N[C@H](CCCNC(=N)N)C(=O)N[C@@H](C(=O)N[C@H](Cc1ccc(O)cc1)C(=O)N[C@H](C)C(=O)N[C@H](CC(C)C)C(=O)N[C@H](CCCNC(=N)N)C(=O)N[C@H](Cc1ccccc1)C(=O)N[C@H](Cc1c[nH]cn1)C(=O)N[C@H](CC(C)C)C(=O)N[C@H](CCC(N)=O)C(=O)N[C@H](CC(C)C)C(=O)N[C@@H](C(N)=O)C(C)C)C(C)C)[C@H](C)CC)C(C)C | hemagglutinin influenza A/California/07/2009 H1N1 |  |  |  | Ki | 35 µM |
| CCCCCCCC[C@H]1O[C@H]1C/C=C/C=C/[C@H](O)CC(=O)NC1=C[C@](C)(CC)OC1=O | Na(+)-translocating NADH-quinone reductase subunit B, whole Na+-NQR complex (nqrB, Vibrio cholerae serotype O1, UniProt Q9KPS2, R151A) | enzyme activity, inhibitor |  | NqrB-R151A mutant | IC50 | < 0.01 µM |
| Cn1cc2cc(C(F)(F)c3nnc4ccc(-c5cnn(C6CC6)c5)nn34)c(F)cc2n1 | MET (Homo sapiens, UniProt P08581) |  |  |  | IC50 | 0.0022 µM |
| CNC(C)Cc1ccc2c(c1)OCO2 (stereo not drawn) | SLC22A1 (Homo sapiens, UniProt O15245) |  |  |  | IC50 | 2.8 ± 2.1 µM |
| OCCCCO | Cytochrome P450 2E1 (CYP2E1, Homo sapiens, UniProt P05181) | inhibitor |  | 30 min, pH 7.4 | IC50 | 15000 µM |
| Oc1cccc([C@]23CCC[C@H]([C@H]2O)N(CC=Cc2ccccc2)CC3)c1 | Oprd1 (Rattus norvegicus, UniProt P33533) | displacement | rat brain homogenate | together with: [3H]DADLE 1 nM, DAMGO 30 nM | Ki | 0.0178 ± 0.00135 µM |
| COc1cc(CCNCc2ccccc2OC)c(OC)cc1Br | HTR2A (Homo sapiens, UniProt P28223) | agonist |  |  | EC50 | 0.00019 µM |
| CC[C@@H](NC(=O)CNC(=O)[C@@H](CC(C)C)NC(=O)CNC(=O)[C@H](N)CCC(N)=O)C(=O)N[C@H](CC(=O)O)C(=O)N[C@H](CCC(=O)O)C(=O)N[C@H](CCSC)C(=O)N[C@H](CC(C)C)C(=O)N[C@H](CCC(N)=O)C(=O)NCC(=O)N[C@H](Cc1ccccc1)C(=O)N[C@H](C)C(=O)N[C@@H](C(=O)N[C@H](C)C(=O)N[C@@H](C(=O)N[C@H](CCCCN)C(=O)N[C@H](CCSC)C(=O)NCC(=O)N[C@H](C)C(=O)N[C@H](Cc1ccc(O)cc1)C(=O)N[C@H](CCCCN)C(=O)N[C@H](C)C(=O)N[C@H](Cc1c[nH]c2ccccc12)C(=O)O)C(C)C)C(C)C | hemagglutinin influenza A/California/07/2009 H1N1 |  |  |  | Ki | 6 µM |
| CC(NC(C)(C)C)C(=O)c1cccc(Cl)c1 (stereo not drawn) | Nuclear receptor subfamily 2 group C member 2, ligand-binding domain (Homo sapiens, UniProt P49116) | SPR imaging |  |  | Kd | 0.0238 µM |
| CC[C@@H](NC(=O)CNC(=O)[C@@H](CC(C)C)NC(=O)CNC(=O)[C@H](N)CCC(N)=O)C(=O)N[C@H](CC(=O)O)C(=O)N[C@H](CCC(=O)O)C(=O)N[C@H](CCSC)C(=O)N[C@H](CC(C)C)C(=O)N[C@H](CCC(N)=O)C(=O)NCC(=O)N[C@H](Cc1ccccc1)C(=O)N[C@H](C)C(=O)N[C@@H](C(=O)N[C@H](C)C(=O)N[C@@H](C(=O)N[C@H](CCCCN)C(=O)N[C@H](CCSC)C(=O)NCC(=O)N[C@H](C)C(=O)N[C@@H](C(=O)N[C@H](CCCCN)C(=O)N[C@H](C)C(=O)N[C@H](CC(=O)O)C(=O)O)[C@H](C)O)C(C)C)C(C)C | hemagglutinin influenza A/California/07/2009 H1N1 |  |  |  | Ki | 19 µM |
| O=C(Cc1cccc([N+](=O)[O-])c1)N[C@H]1CCOC1=O | expR |  |  |  | EC50 | 0.7 µM |
| CN[C@]1(c2ccccc2Cl)CCCCC1=O | CHRNA7 (Homo sapiens, UniProt P36544) | channel function, antagonist, IonWorks Barracuda |  |  | IC50 | 17.4 µM |
| Nc1ncnc2c1ncn2[C@@H]1O[C@H](COP(=O)(O)OP(=O)(O)OP(=O)(O)O)[C@@H](O)[C@H]1O | MET (Homo sapiens, UniProt P08581, C1091S/C1146S/K1232C/L1195V) | binding |  |  | Kd | 61 ± 2 µM |

Repeated from above:
| Structure (SMILES) | target | test | test system | setting | endpoint | value |
| --- | --- | --- | --- | --- | --- | --- |
| Oc1cccc([C@]23CCC[C@H]([C@H]2O)N(CC=Cc2ccccc2)CC3)c1 | Oprd1 (Rattus norvegicus, UniProt P33533) | displacement | rat brain homogenate | together with: [3H]DADLE 1 nM, DAMGO 30 nM | Ki | 0.0178 ± 0.00135 µM |
| COc1cc(CCNCc2ccccc2OC)c(OC)cc1Br | HTR2A (Homo sapiens, UniProt P28223) | agonist |  |  | EC50 | 0.00019 µM |
